Results collected from several papers.
Parts stem from different laboratories: compare values within a part only. Values joined by “and” are separate records of one study, mostly repeats; a detail may differ.
Sequence of UniProt Q14289 (whole entry, looked up): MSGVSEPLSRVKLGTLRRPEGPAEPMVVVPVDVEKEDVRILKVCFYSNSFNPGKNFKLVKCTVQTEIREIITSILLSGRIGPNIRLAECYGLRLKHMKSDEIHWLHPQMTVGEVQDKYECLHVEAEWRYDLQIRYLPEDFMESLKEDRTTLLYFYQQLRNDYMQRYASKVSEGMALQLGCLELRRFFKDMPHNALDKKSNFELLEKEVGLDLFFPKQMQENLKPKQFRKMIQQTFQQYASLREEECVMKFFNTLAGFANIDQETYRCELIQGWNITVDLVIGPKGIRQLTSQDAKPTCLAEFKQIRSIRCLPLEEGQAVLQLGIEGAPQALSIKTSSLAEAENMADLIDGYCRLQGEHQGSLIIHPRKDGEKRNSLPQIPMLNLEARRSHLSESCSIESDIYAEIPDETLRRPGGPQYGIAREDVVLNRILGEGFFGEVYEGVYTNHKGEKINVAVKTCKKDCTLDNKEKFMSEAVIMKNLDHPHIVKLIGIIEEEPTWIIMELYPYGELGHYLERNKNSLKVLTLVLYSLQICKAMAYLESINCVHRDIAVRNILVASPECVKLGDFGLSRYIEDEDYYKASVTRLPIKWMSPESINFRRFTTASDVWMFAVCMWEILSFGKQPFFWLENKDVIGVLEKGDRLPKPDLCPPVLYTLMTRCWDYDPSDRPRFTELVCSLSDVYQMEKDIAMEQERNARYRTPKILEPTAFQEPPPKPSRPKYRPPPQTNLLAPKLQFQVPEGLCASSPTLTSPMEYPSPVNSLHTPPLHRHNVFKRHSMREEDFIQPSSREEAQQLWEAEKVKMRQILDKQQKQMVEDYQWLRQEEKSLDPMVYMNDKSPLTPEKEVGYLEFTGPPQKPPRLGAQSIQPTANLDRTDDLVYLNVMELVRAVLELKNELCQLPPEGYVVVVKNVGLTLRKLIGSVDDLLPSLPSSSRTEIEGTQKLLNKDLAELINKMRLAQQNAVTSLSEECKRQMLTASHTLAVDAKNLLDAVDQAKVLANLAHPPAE
Sequence of UniProt Q00537 (whole entry, looked up): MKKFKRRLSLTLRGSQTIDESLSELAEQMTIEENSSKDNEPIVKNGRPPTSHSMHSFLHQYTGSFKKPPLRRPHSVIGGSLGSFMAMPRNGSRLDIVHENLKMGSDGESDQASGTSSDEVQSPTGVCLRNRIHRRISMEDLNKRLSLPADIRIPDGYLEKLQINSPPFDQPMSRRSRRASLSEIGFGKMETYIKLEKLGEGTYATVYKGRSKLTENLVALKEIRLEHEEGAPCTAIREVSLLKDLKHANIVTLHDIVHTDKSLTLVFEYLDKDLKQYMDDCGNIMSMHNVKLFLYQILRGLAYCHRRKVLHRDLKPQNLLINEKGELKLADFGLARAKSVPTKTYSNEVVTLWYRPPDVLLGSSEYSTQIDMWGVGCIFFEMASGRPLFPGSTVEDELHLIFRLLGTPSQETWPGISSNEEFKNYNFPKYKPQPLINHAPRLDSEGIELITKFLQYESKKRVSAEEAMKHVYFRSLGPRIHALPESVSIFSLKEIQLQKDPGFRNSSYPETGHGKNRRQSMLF
Sequence of UniProt P23458 (whole entry, looked up): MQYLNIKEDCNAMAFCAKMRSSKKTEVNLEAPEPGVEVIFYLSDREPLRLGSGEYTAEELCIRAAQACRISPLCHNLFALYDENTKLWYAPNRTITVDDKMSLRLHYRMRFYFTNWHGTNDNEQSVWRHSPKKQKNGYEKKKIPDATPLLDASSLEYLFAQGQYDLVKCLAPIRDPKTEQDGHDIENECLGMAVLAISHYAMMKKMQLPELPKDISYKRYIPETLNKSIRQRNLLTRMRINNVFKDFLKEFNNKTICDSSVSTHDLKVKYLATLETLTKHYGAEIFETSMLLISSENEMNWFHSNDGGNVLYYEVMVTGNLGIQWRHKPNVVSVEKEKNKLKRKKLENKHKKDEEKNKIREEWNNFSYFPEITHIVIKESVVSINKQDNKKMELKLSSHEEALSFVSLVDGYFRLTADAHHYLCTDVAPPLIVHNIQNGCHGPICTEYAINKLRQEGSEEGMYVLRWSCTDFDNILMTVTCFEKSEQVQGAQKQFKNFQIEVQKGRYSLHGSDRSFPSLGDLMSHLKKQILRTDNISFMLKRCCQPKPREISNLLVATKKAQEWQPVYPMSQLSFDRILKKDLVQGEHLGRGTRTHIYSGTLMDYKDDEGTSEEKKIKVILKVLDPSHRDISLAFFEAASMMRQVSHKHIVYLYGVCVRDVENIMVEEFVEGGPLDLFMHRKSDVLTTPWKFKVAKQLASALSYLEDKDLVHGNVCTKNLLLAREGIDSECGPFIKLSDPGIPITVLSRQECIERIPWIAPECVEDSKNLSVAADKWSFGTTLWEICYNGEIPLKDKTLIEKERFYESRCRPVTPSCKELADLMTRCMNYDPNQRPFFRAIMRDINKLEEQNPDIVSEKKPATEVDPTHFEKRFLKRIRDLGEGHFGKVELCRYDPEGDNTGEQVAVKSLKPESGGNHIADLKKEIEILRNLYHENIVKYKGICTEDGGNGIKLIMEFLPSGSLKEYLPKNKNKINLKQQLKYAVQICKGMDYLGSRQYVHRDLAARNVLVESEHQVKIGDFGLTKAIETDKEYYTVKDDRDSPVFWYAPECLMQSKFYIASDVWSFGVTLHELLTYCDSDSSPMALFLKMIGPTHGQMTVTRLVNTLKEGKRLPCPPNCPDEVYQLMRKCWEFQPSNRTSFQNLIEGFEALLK
Sequence of UniProt P10721 (whole entry, unmodified, looked up): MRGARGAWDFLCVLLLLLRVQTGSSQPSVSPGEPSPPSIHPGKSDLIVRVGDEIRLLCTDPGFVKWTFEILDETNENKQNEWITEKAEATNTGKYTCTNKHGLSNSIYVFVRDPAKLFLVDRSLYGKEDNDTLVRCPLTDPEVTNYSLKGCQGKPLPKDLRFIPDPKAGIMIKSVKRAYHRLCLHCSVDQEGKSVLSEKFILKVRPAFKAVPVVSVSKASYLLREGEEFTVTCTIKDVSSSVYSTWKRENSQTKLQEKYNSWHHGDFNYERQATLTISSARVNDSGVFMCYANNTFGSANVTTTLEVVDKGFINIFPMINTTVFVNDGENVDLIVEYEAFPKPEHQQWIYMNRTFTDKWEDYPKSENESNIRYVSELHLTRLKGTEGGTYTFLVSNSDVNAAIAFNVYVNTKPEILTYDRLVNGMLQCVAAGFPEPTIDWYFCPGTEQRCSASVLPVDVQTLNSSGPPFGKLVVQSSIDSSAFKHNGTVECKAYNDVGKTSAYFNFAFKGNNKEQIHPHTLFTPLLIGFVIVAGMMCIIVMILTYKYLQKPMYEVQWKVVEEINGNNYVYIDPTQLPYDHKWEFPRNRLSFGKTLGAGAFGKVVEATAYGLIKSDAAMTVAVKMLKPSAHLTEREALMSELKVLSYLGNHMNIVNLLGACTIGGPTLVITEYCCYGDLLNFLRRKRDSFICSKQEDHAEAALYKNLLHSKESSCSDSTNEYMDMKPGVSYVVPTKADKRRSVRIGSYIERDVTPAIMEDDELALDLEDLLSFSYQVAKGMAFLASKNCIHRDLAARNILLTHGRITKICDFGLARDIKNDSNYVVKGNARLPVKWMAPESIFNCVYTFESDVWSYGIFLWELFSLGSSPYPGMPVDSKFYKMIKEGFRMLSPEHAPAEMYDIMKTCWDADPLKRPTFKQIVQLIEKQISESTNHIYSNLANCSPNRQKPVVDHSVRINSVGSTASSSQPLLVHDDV
Sequence of UniProt Q9H093 (whole entry, looked up): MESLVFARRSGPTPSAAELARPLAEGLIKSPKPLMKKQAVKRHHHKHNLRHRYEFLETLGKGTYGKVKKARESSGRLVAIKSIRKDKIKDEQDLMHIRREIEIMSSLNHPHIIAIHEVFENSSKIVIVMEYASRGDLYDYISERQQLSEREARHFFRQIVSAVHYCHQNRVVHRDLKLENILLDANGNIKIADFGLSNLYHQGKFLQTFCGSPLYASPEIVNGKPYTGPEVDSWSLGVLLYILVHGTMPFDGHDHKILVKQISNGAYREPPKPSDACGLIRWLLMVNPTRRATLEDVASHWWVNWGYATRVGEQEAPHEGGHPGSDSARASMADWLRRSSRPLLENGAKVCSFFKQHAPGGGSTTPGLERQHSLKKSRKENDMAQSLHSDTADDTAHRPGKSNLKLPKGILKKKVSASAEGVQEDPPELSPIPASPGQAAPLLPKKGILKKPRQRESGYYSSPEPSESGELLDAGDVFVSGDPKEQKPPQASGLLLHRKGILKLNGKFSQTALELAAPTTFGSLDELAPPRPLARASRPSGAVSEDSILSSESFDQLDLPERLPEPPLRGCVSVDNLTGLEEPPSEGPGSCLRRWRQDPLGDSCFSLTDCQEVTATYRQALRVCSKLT

Block 1
Cell line: mouse MPNST tumor cells
Technique: high-content immunofluorescence imaging
Measured: nuclear SOX9
Tested at: 10 µM
Time: 12 h
Notes: mean of 2 replicates
Reference: DMSO control
Direction: higher = more nuclear SOX9
SMILES | nuclear SOX9 intensity
CC1CC(OC(=O)C(O)c2ccccc2)CC(C)(C)C1 (stereo not drawn) | 97.5 % of DMSO
CCS(=O)(=O)CCn1c([N+](=O)[O-])cnc1C | 98.7 % of DMSO and 94.7 % of DMSO
CCN(CC)CCNC(=O)c1cc(Cl)c(N)cc1OC | 101 % of DMSO
O=C(O)Cc1ccccc1Nc1c(Cl)cccc1Cl | 100 % of DMSO
c1ccc(CC2=NCCN2)cc1 | 96.8 % of DMSO and 109 % of DMSO
COc1ccc([C@@H]2Sc3ccccc3N(CCN(C)C)C(=O)[C@@H]2OC(C)=O)cc1 | 113 % of DMSO and 121 % of DMSO

Block 2
SMILES: O=C(NCc1ncc(C(F)(F)F)cc1Cl)c1ccc2c(c1)C1(CCS(=O)(=O)CC1)[C@H](C1CC1)N2S(=O)(=O)c1ccc(F)cc1
Effect on: cell-free assay
Technique: competition with immobilised ligand
Tested at: 1 µM
target | remaining binding [%]
Tyrosine-protein kinase ABL2 (ABL2, Homo sapiens, UniProt P42684) | 100
Serine/threonine-protein kinase TAO1 (TAOK1, Homo sapiens, UniProt Q7L7X3) | 100
Dual specificity tyrosine-phosphorylation-regulated kinase 2 (DYRK2, Homo sapiens, UniProt Q92630) | 95
NUAK family SNF1-like kinase 2 (NUAK2, Homo sapiens, UniProt Q9H093) | 81
Mitogen-activated protein kinase 11 (MAPK11, Homo sapiens, UniProt Q15759) | 100
Epidermal growth factor receptor (EGFR, Homo sapiens, UniProt P00533, G719C) | 78
Protein-tyrosine kinase 2-beta (PTK2B, Homo sapiens, UniProt Q14289) | 100
Mast/stem cell growth factor receptor Kit (KIT, Homo sapiens, UniProt P10721, V559D) | 100
Serine/threonine-protein kinase pim-2 (PIM2, Homo sapiens, UniProt Q9P1W9) | 94
1-phosphatidylinositol 3-phosphate 5-kinase (PIKFYVE, Homo sapiens, UniProt Q9Y2I7) | 84
Serine/threonine-protein kinase MARK2 (MARK2, Homo sapiens, UniProt Q7KZI7) | 100
Death-associated protein kinase 3 (DAPK3, Homo sapiens, UniProt O43293) | 90
Cyclin-dependent kinase 17 (CDK17, Homo sapiens, UniProt Q00537) | 100
Tyrosine-protein kinase JAK1, JH1 (JAK1, Homo sapiens, UniProt P23458) | 86

Block 3
Host: mouse
Medium: microsomes or S9
Tested at: 2 µM
Time: 0.5 h
Compound | remaining compound [%]
COc1cc(=O)n(C)cc1C(=O)NCCc1ccc(S(N)(=O)=O)cc1 | 92.2
Cc1nnc(SCC(=O)Nc2nc[nH]n2)s1 | 55
CN(C)c1ccc(C(O)CF)c(S(N)(=O)=O)n1 (stereo not drawn) | 89.1
O=S(=O)(/N=C(\NC1CCCCC1)c1ccccc1)c1ccccc1 | 6.76
COc1ccc(-n2c3c(c4nc(OC)ccc42)CCC3)cc1 | 2.45
COC(=O)c1cccnc1C1=NC(C)(C(C)C)C(=O)N1 (stereo not drawn) | 59.2

Block 4
Target: Calcium/calmodulin-dependent protein kinase type II subunit alpha (CAMK2A, Homo sapiens, UniProt Q9UQM7)
Sequence of UniProt Q9UQM7 (whole entry, looked up): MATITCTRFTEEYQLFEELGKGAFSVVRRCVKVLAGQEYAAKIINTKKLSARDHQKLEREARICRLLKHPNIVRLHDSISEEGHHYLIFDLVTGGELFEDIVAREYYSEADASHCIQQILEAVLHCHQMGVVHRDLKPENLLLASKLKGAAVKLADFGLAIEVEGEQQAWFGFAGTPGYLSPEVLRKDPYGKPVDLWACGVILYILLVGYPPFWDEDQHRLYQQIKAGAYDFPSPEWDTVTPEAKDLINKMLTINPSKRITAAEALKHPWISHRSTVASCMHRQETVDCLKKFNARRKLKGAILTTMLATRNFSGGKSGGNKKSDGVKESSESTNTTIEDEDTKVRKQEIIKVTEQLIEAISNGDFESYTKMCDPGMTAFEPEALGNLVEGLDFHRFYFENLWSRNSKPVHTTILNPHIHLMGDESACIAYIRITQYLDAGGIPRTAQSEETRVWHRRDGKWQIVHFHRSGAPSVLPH
Effect on: enzyme activity
Mode: inhibitor
Tested at: 10 µM
Structure (SMILES) | inhibition [%]
CC1(C)[C@@H]2CC[C@@]1(C)[C@H](O)C2 | 11
C=CCNc1nc(NCC=C)nc(N2CCN(C(c3ccc(F)cc3)c3ccc(F)cc3)CC2)n1 | -11
CC(=O)NCCC(=O)O | -8
CC1(C)O[C@H]2CC(=O)OC[C@]23[C@H]2CC[C@@]4(C)[C@H](c5ccoc5)OC(=O)[C@H]5O[C@]54[C@]2(C)C(=O)C[C@@H]13 | -67

For quick reference, copied from above (block 3):
Compound | remaining compound [%]
CN(C)c1ccc(C(O)CF)c(S(N)(=O)=O)n1 (stereo not drawn) | 89.1
O=S(=O)(/N=C(\NC1CCCCC1)c1ccccc1)c1ccccc1 | 6.76
